Assay results collected from several papers.
Each line is one published result; not all experiments were run side by side. ± gives the spread as reported.

`COc1cc(C)c(Cc2ccc(O)cc2)cc1[C@@H]1S[C@H](CO)[C@@H](O)[C@H](O)[C@H]1O` gave an AUC(0-τ) of 259 ± 50.8 ng·h/mL (Japanese T2DM patients, plasma; 5 mg luseogliflozin, day 7, once daily).
For `COC(=O)c1ccc(-c2cn(Cc3cc(Cl)ccc3O[11CH3])nn2)cc1`, the distribution volume was 0.699 mL/cm³ (PET, two-tissue compartment model; rhesus monkey, brain NAc; dose not given).
With `O=C([O-])CN1CCN(CC(=O)[O-])CCN(C(CCC(=O)NCCCCCN(CCCC[C@H](NC(=O)N[C@@H](CCC(=O)O)C(=O)O)C(=O)O)C(=O)c2ccc(I)cc2)C(=O)O)CCN(CC(=O)[O-])CC1.[68Ga+3]` (stereo partly drawn) the SUVmean was 0.58 ± 0.09 (PET/CT; prostate cancer patients, gluteal muscle; 60 min post-injection).
`Cc1ccc(OCC(=O)N(Cc2cccs2)c2ccn[nH]2)cc1` has a dose-normalised AUC(0-last) of 0.786 ng·h/mL/mg/kg (Sprague-Dawley rat, female, plasma; oral gavage, 10 mg/kg).
The blood cholesterol of `C=C(c1ccc(C(=O)O)c(F)c1)c1cc2c(cc1C)C(C)(C)C=CC2(C)C` is reported as 102 ± 12.5 mg/dL (Sprague-Dawley rat, male; oral, 100 mg/kg, 3 h, sesame oil vehicle).
`O=C([O-])CN1CCN(CC(=O)[O-])CCN(CC(=O)NCC2CCC(C(=O)NC(Cc3ccc4ccccc4c3)C(=O)NCCCCC(NC(=O)NC(CCC(=O)O)C(=O)O)C(=O)O)CC2)CCN(CC(=O)[O-])CC1.[44Sc+3]` (stereo not drawn) has an absorbed dose of 0.11 mSv/MBq (PET/CT, OLINDA/EXM; human patients, liver; mean of patients).
`Cc1cc(C(=O)N[C@@H](CO)CC(C)C)ccc1CO`: “metabolite peak area” 0.1% (LC-MS; human liver microsomes; 10 µM of parent drug, 20 min, pH 7.4, with: NADPH; reference: parent drug at time zero).
`Cn1c(=O)oc2ccc(-c3ccc(CC(C#N)NC(=O)C4CNCCCO4)c(F)c3)cc21` (stereo not drawn) — result for “subjects with TEAE”: 0% (refers to: blood triglycerides increased; human; 80 mg single dose, fasted).
With `[Cl-].[Cl-].[Ru+2].c1ccc2nc3c4cccnc4c4ncccc4c3nc2c1.c1ccncc1.c1ccncc1.c1ccncc1.c1ccncc1` the hemolysis was 0.07 ± 0.01% (red blood cells, rabbit; 5 µM, 2 h, 37 °C).
`Oc1c(Br)cc(Br)c2nc3cc(Cl)ccc3nc12` gave a hemolysis of at most 1% (human red blood cells; 200 µM, 1 h, pH 7.2, 37 °C).
For `CC(C)c1cnc(-c2cc(Cl)ccc2F)cc1Nc1ccncc1C(=O)NC(CO)CO`, “patients with treatment-related adverse event” read 0% (monotherapy, refers to: headache; human patients; oral, dose not given, grade 5, phase I A).
The recovery of `CC[C@H](C)[C@H](NC(=O)[C@H](N)Cc1ccc(O)cc1)C(=O)N[C@H]1CSSC[C@@H](C(=O)N(C)[C@H](C(N)=O)[C@@H](C)CC)NC(=O)[C@H](CCCNC(=N)N)NC(=O)[C@H](Cc2c[nH]cn2)NC(=O)[C@H](C)NC(=O)CN(C)C(=O)[C@H](Cc2c[nH]c3ccccc23)NC(=O)[C@H](CC(=O)O)NC(=O)[C@H](CCC(N)=O)NC(=O)[C@H](Cc2cn(C)c3ccccc23)NC(=O)[C@H](C(C)C)NC1=O` is reported as 100 ± 1.3% (UPLC-ESI-MS; human plasma; 0.18 µg/mL, 24 h, 4 °C, autosampler after SPE).
`CN(C)C(=O)c1ccc(COC(=O)N(Cc2cccc(CN3CCCCC3)c2)[c-]2cccc2)cc1.[Fe+2].c1cc[cH-]c1` has an E1/2 of -35 mV (cyclic and differential pulse voltammetry; acetonitrile; 23 °C; reference: ferrocene/ferrocenium).
`COc1ccc(/C=C/c2ccc(-c3ccc(C)cn3)nc2)cc1` — result for “radiative decay rate constant”: 0.56 ns⁻¹ (TCSPC; DMSO).
`CCCC[C@H](NC(=O)CNC(=O)CNC(=O)CN1CCN(CC(=O)O)CCN(CC(=O)O)CCN(CC(=O)O)CC1)C(=O)N[C@H]1CC(=O)NCCCC[C@@H](C(N)=O)NC(=O)[C@H](Cc2c[nH]c3ccccc23)NC(=O)[C@H](CCCNC(=N)N)NC(=O)[C@@H](Cc2ccccc2)NC(=O)[C@H](Cc2c[nH]cn2)NC1=O` [copper-64 labelled] has a tissue uptake of 1.27 ± 0.47 %ID/g (C57 mouse B16/F1 melanoma, skin; 4 h).
`O=S(=O)(c1ccccc1)N1CCCCC1` has a recovery of 91% (citrate buffer; 24 h, pH 2.0).
`Cc1nc2cccc(OCC(C)(C)C(=O)NC(C)C)c2c(N)c1C(=O)[O-].[Na+]` gave a dose-normalised Cmax of 1.28 ng/mL/mg/kg (male Sprague-Dawley rat, plasma; oral gavage, 30 mg/kg single dose).
Under “radioactive dose excreted in urine”, `CC(O)c1nc(-c2ccc3c(c2)CCC3NC(=O)c2cnn(C)c2)no1` (stereo not drawn) is recorded as 2.85% (human, pooled urine; oral, 20 mg; reference: dose).
For `CCCC[C@@H]1NC(=O)[C@@H](NC(=O)[C@H](CCC(=O)O)NC(=O)CNC(=O)CN2CCN(CC(=O)O)CCN(CC(=O)O)CCN(CC(=O)O)CC2)CCCCNC(=O)C[C@@H](C(N)=O)NC(=O)[C@H](C(C)C)NC(=O)[C@@H]2CCCN2C(=O)[C@H](CCCNC(=N)N)NC(=O)CNC(=O)[C@H](Cc2c[nH]c3ccccc23)NC(=O)[C@H](CCCNC(=N)N)NC(=O)[C@@H](Cc2ccccc2)NC(=O)[C@H](Cc2c[nH]cn2)NC(=O)[C@H](CCC(=O)O)NC1=O` [gallium-67 labelled], “tumour to lung ratio” read 5.97 (C57 mice with B16/F1 melanoma; intravenous, 0.037 MBq/mouse, 0.5 h; reference: tumour over lung).
Under “intestine to liver ratio”, `COCCOCCOCCOCCOCCOCCOCCOCCOCCOCCOCCOCCOCCOCCOCCOCCOCCOCCOCCOCCOCCOCCNC(=O)CCC1(Cc2ccccc2)c2ccccc2-c2ccc(-c3sc(-c4c5c(c(-c6sc(-c7ccc8c(c7)C(CCC(=O)NCCOCCOCCOCCOCCOCCOCCOCCOCCOCCOCCOCCOCCOCCOCCOCCOCCOCCOCCOCCOCCOCCOC)(Cc7ccccc7)c7ccccc7-8)c7c6OCCO7)c6nsnc46)N=S=N5)c4c3OCCO4)cc21` (stereo not drawn) is recorded as about 5 (ex vivo fluorescence imaging; KM mouse, female; iv, 15 mg/kg, 6 h).
With `Oc1ccc(C(F)(F)F)cc1-c1nc2c(Br)cc(Br)cc2[nH]1` the hemolysis was under 50% (defibrinated sheep blood; 400 µM; reference: 1% Triton X-100).
`CC(C)(Sc1cc[n+]([O-])cc1-c1ccc(C#N)c2ccccc12)C(=O)OC1OC(C(=O)O)C(O)C(O)C1O` (stereo not drawn): “renal clearance ratio (0-72 h)” 73.9% (adult men, urine; oral, 15 mg verinurad, mild renal impairment; reference: impaired over normal renal function).
`Oc1ccc2ccccc2c1/N=N/c1ccccc1` gave a measured concentration of 4.92 µg/L (rat whole blood QC samples; 5.0 µg/L, 4 h, room temperature, short-term stability).
Under “remaining parent compound”, `Cc1ccc(N2Cc3cc(NC(=O)N4CCN(c5cccc(C(F)(F)F)c5)CC4)ccc3C2=O)cc1` is recorded as 84.8 ± 3.05% (mouse C57BL/6, liver microsomes; 90 min).
For `CCCCC1NC(=O)c2ccccc21` (racemic), the oral bioavailability was 93.7% (Wistar rat; oral, 10 mg/kg).
The uptake ratio of `CCCC[C@H](NC(=O)CN1CCC(NC(=O)CN2CCN(CC(=O)O)CCN(CC(=O)O)CCN(CC(=O)O)CC2)CC1)C(=O)N[C@H]1CC(=O)NCCCC[C@@H](C(N)=O)NC(=O)[C@H](Cc2c[nH]c3ccccc23)NC(=O)[C@H](CCCNC(=N)N)NC(=O)[C@@H](Cc2ccccc2)NC(=O)[C@H](Cc2c[nH]cn2)NC1=O` [gallium-68 labelled] is reported as 0.1 ± 0.1 (male C57BL/6J mice, B16-F10 tumours, tumour, kidney; intravenous, 1 h, blocking study, with: 100 µg non-radioactive Ga-peptide; reference: tumour over kidney).
Under “renal clearance decrease”, `CC(C)(Sc1ccncc1-c1ccc(C#N)c2ccccc12)C(=O)OC1OC(C(=O)O)C(O)C(O)C1O` (stereo not drawn) is recorded as 90% (urine; oral, 15 mg, severe renal impairment; reference: normal renal function).
`CC(C)[C@H](NC(=O)CNC(=O)[C@H](CCC(N)=O)NC(=O)[C@H](C)N)C(=O)O` has an AUC(0-last) of 645 ng·h/mL (LC-MS/MS; human, plasma; intravenous, 30 mg/kg three times daily, day 1, first dose, 10 min infusion, geometric mean).
`CCCC[C@H](NC(C)=O)C(=O)N[C@H]1CC(=O)NCCCC[C@@H](C(=O)N[C@@H](C(=O)N2CCC[C@@H]2C(N)=O)C(C)C)NC(=O)[C@H](Cc2c[nH]c3ccccc23)NC(=O)[C@H](CCCN=C(N)N)NC(=O)[C@@H](Cc2ccc3ccccc3c2)NC(=O)[C@@H]2CCCN2C1=O` has a Tmax of 1.6 ± 0.3 h (Beagle dog, both sexes, plasma; subcutaneous, once daily, 2.25 mg/kg, day 5).
Under “Kirkwood-Buff integral G2,3”, `C#CCOc1ccc(/C=C2\SC(=O)N(CC(=O)NCc3ccccc3)C2=O)cc1` is recorded as -350 cm³/mol (inverse Kirkwood-Buff integrals; binary solvent mixture; 298.15 K, mole fraction x1 0.90).
Under “metabolite formation half-life”, `C[C@](C#N)(COc1cc(C#N)ccc1C(F)(F)F)NC(=O)c1ccc(S(=O)(=O)C(F)(F)F)cc1` is recorded as 9.79 ± 4.06 h (parasitized calves, plasma; oral, 2.5 mg/kg of monepantel).
`CN(C)C(=O)c1ccnc(N2Cc3cn(Cc4ccc(F)cc4F)nc3C2)n1` — result for “effect size d”: 0.03 (novel object recognition, refers to: discrimination index; wild-type mice; oral, 5 mg/kg daily, from 1 week before test, unit not given; reference: vehicle).
For `CCn1c(=O)n(CCO)c(=O)c2c1nc(/C=C/c1ccc(OC)c(OC)c1)n2C`, “metabolite to parent AUCinf ratio” read 0.0513 (healthy humans, plasma; oral, 40 mg).
The intact complex of `CC(=O)N([O-])CCCCCNC(=O)CCC(=O)N([O-])CCCCCNC(=O)CCC(=O)N([O-])CCCCCN.[89Zr+4]` is reported as 27.3 ± 3.3% (radio-iTLC; aqueous buffer; 3 h, pH 5.0, 37 °C, EDTA challenge, with: 100-fold excess EDTA).
The relaxivity r1 of `O=C([O-])CN1CCN(CC(=O)[O-])CCN(C(CCC(=O)NC(Cc2c[nH]c3ccc(O)cc23)C(=O)NCCc2c[nH]c3ccc(O)cc23)C(=O)O)CCN(CC(=O)[O-])CC1.[Gd+3]` (stereo not drawn) is reported as 5.6 mM⁻¹ s⁻¹ (PBS; 40 °C, 0.47 T).
For `COCCOCCOCCOCCOCCOCCOCCOCCC(=O)NCCCc1cc2cc3nc(cc4[nH]c(cc5nc(c(OC)c1[nH]2)C(=O)C5(C)C)cc4CCc1ccc(C(=O)O)cc1)CC3(C)C`, “Qy/B absorption intensity ratio” read 0.29 (water with 5% DMF; room temperature).
`CC(C)CCCC(C)CCCC(C)CCO[C@@H]1O[C@H](CO)[C@@H](O[C@H]2O[C@H](CO)[C@@H](O)[C@H](O)[C@H]2O)[C@H](O)[C@H]1O` (stereo partly drawn) gave a diffusion coefficient of about 2.9e-10 m²/s (dynamic surface tension; water; 0.0072 mmol/L).
`CCCC[C@H](NC(=O)CNC(=O)CNC(=O)CN1CCN(CC(=O)O)CCN(CC(=O)O)CCN(CC(=O)O)CC1)C(=O)N[C@H]1CC(=O)NCCCC[C@@H](C(N)=O)NC(=O)[C@H](Cc2c[nH]c3ccccc23)NC(=O)[C@H](CCCNC(=N)N)NC(=O)[C@@H](Cc2ccccc2)NC(=O)[C@H](Cc2c[nH]cn2)NC1=O` [gallium-67 labelled] gave a urinary excretion of 59.4 ± 5.31% (C57 mice, female, B16/F1 melanoma, urine; intravenous, 0.037 MBq, 0.5 h).
With `NCC(=O)N1CCC[C@H]1C(=O)N1C[C@H](O)C[C@H]1C(=O)O` the log beta was 17.6 (potentiometric titration; 40 °C, MA complex, with: Fe(III)).
`C=CC(=O)Nc1cc(Nc2nccc(-c3cn(C)c4ccccc34)n2)c(OC)cc1N(C)CCN(C)C`: “steady-state trough concentration” 205 ng/mL (UHPLC-MS/MS; human, plasma; oral, 80 mg daily).
`CCN(CC)CCN=S(=O)(c1ccccc1)N1CCCCC1` (stereo not drawn) gave a recovery of 100% (PBS; 24 h, pH 7, hydrolytic stability).
Under “mean absorbed dose”, `NC12CNCCNCC(NCc3ccc(CNC(=O)CCCC(=O)NCc4ccc(-c5nncnn5)cc4)cc3)(CNCCNC1)CNCCNC2.[64Cu+2]` is recorded as 0.0382 rad/mCi (OLINDA dosimetry; upper large intestine wall; pretargeting, 48-h interval).

A few entries again:
For `CCCCC1NC(=O)c2ccccc21` (racemic), the oral bioavailability was 93.7% (Wistar rat; oral, 10 mg/kg).
The uptake ratio of `CCCC[C@H](NC(=O)CN1CCC(NC(=O)CN2CCN(CC(=O)O)CCN(CC(=O)O)CCN(CC(=O)O)CC2)CC1)C(=O)N[C@H]1CC(=O)NCCCC[C@@H](C(N)=O)NC(=O)[C@H](Cc2c[nH]c3ccccc23)NC(=O)[C@H](CCCNC(=N)N)NC(=O)[C@@H](Cc2ccccc2)NC(=O)[C@H](Cc2c[nH]cn2)NC1=O` [gallium-68 labelled] is reported as 0.1 ± 0.1 (male C57BL/6J mice, B16-F10 tumours, tumour, kidney; intravenous, 1 h, blocking study, with: 100 µg non-radioactive Ga-peptide; reference: tumour over kidney).
Under “renal clearance decrease”, `CC(C)(Sc1ccncc1-c1ccc(C#N)c2ccccc12)C(=O)OC1OC(C(=O)O)C(O)C(O)C1O` (stereo not drawn) is recorded as 90% (urine; oral, 15 mg, severe renal impairment; reference: normal renal function).
